Results collected from several papers.
Each line is one published result; not all experiments were run side by side. Values joined by “and” are separate records of one study, mostly repeats; a detail may differ. ± gives the spread as reported.
Sterol carrier protein 2: Sterol carrier protein 2 (Homo sapiens, UniProt P22307)
UniProt P22307, sequence (whole entry, looked up): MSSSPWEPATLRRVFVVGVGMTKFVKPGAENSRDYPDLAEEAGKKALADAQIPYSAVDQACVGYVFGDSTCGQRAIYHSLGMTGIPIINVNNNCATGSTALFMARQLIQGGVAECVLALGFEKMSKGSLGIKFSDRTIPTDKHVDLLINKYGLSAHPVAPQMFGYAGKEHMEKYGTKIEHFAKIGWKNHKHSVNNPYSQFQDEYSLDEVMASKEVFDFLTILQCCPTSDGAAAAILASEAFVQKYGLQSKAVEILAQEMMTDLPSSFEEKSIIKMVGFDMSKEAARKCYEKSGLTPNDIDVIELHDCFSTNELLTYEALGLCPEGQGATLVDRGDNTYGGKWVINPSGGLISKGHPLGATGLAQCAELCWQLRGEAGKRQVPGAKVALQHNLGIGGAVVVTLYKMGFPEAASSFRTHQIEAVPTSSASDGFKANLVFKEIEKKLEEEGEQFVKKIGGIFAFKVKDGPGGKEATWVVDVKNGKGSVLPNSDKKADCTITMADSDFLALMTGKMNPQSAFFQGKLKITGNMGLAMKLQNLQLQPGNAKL
MYH11 S1 fragment: MYH11, S1 fragment (Gallus gallus, UniProt P10587)
UniProt P10587, sequence (whole entry, looked up): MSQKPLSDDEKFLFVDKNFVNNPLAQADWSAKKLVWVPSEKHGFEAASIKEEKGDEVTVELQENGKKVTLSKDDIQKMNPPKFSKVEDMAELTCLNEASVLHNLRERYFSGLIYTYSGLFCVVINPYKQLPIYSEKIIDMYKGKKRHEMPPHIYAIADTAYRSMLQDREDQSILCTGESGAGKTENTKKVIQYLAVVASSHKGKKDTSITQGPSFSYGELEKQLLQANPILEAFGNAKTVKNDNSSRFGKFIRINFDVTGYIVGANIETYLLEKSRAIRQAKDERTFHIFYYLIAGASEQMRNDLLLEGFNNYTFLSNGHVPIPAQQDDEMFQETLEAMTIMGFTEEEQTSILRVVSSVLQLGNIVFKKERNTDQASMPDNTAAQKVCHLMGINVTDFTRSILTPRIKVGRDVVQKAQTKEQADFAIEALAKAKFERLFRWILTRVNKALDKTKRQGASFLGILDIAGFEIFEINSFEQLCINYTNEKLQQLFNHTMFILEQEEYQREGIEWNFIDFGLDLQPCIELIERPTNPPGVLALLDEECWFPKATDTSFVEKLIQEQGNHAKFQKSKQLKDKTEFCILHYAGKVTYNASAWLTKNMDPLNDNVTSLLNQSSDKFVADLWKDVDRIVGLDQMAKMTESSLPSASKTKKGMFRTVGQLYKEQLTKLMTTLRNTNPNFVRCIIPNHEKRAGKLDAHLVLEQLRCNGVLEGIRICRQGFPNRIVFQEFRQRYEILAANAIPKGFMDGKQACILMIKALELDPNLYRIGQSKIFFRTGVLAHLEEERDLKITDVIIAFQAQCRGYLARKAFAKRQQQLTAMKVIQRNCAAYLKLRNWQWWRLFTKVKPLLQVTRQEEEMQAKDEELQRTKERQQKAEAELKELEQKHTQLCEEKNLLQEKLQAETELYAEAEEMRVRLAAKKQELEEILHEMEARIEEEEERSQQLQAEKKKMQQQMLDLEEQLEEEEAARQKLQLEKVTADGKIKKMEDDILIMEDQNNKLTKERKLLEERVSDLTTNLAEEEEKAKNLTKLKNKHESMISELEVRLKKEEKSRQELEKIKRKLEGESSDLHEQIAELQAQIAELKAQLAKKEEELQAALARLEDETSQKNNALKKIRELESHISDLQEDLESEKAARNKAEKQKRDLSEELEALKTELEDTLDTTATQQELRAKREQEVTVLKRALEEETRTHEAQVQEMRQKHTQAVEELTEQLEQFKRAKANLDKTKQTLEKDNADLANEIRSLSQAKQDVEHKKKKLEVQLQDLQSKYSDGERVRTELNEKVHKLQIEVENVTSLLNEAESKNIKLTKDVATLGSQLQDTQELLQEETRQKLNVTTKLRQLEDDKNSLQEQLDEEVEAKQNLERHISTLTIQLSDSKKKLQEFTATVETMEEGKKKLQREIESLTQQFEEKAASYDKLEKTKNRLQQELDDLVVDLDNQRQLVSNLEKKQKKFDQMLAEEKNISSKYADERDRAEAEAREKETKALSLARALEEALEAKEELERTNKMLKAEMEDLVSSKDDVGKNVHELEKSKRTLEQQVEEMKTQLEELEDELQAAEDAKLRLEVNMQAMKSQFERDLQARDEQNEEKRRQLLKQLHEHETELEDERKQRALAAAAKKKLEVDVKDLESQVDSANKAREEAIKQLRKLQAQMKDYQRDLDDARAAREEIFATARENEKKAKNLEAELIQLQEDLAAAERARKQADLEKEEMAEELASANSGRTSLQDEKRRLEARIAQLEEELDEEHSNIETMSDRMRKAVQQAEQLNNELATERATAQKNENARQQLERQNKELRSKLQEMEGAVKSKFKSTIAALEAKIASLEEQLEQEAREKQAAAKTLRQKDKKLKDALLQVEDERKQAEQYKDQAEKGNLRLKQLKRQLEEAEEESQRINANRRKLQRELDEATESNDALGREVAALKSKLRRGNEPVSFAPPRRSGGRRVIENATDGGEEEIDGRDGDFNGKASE
BCHE: Cholinesterase (BCHE, Homo sapiens, UniProt P06276)
UniProt P06276, sequence (whole entry, looked up): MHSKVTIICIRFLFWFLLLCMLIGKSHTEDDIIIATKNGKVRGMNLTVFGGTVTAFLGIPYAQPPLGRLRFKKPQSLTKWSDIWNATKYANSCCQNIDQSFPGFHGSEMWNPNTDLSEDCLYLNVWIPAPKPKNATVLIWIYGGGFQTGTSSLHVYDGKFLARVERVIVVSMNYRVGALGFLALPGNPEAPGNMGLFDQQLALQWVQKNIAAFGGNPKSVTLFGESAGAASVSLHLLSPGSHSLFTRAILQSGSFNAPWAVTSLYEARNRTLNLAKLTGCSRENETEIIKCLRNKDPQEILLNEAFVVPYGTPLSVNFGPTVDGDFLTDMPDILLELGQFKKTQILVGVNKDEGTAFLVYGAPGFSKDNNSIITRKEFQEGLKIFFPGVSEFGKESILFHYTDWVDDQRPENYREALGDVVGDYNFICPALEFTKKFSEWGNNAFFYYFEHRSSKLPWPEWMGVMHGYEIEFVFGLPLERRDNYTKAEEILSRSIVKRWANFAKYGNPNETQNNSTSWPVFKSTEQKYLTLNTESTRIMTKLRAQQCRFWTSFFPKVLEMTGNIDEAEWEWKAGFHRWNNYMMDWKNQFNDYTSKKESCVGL
UniProt P04756, sequence (whole entry, looked up): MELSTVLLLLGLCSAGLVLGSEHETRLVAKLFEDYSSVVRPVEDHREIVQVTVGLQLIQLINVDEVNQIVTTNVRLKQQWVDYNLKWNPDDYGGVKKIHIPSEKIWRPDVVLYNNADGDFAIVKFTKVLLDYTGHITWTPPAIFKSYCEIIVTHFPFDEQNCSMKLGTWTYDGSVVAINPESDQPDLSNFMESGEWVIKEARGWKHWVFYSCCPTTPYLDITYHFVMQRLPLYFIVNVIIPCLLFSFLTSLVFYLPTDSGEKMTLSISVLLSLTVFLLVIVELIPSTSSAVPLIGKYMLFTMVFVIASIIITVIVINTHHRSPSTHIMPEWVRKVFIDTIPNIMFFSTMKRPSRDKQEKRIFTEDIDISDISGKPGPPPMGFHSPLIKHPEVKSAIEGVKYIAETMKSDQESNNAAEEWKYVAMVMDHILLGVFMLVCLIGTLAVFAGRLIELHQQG
UniProt Q13011, sequence (whole entry, looked up): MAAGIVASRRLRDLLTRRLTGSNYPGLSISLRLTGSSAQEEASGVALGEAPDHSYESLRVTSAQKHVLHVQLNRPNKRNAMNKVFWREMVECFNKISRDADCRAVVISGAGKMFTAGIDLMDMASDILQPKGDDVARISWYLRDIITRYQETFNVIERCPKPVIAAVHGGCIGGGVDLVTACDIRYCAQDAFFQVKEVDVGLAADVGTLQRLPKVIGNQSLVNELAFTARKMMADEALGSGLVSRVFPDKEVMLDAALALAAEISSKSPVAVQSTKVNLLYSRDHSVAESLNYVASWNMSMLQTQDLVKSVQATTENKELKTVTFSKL
UniProt Q9NWT6, sequence (whole entry, looked up): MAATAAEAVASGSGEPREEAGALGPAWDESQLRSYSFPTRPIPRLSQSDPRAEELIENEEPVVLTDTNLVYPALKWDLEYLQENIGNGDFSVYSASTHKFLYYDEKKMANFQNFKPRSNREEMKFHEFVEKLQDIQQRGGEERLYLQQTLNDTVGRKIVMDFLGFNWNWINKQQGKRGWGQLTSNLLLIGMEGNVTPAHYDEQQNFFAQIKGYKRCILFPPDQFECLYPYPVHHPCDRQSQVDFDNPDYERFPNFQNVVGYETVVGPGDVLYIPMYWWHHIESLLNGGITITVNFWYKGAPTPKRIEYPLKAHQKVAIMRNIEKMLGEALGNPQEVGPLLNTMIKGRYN
UniProt P20782, sequence (whole entry, looked up): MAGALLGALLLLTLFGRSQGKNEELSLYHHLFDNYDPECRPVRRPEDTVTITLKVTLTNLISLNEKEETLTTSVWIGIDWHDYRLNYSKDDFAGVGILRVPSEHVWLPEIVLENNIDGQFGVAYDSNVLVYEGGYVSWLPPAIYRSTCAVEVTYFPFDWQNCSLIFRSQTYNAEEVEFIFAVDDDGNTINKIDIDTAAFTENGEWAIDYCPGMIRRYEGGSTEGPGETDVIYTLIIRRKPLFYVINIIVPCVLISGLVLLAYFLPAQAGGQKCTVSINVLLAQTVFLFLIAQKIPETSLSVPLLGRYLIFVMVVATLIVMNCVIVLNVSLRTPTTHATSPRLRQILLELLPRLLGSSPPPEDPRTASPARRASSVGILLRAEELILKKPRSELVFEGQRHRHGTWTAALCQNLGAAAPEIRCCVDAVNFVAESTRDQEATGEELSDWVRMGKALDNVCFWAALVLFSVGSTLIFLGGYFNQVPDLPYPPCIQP

C#CCSCC(=O)O  Ki (putA (Sinorhizobium meliloti, UniProt F7X6I3)): 1030 ± 90 µM
CC(=O)P(=O)(O)OCCc1cn([C@H](Cc2ccccc2)C(=O)O)nn1  Ki (dxs (Pseudomonas aeruginosa, UniProt Q9KGU7, R106A); inhibitor): 43 ± 9 µM
O=C(O)C(F)(F)C(F)(F)C(F)(F)C(F)(F)C(F)(F)C(F)(F)C(F)(F)C(F)(F)F  Ki (Sterol carrier protein 2; binder, NBD-stearic acid displacement fluorescence; recombinant protein): > 64 µM
Cc1ccc2cc(N3CCC4(O)C(=O)c5cc(C)c(C)cc5N=C34)ccc2n1 (centres unmarked)  Ki (MYH11 S1 fragment; ATPase activity, inhibitor): 17 µM
CN[C@H](CC(C)C)C(=O)N[C@H]1C(=O)N[C@@H](CC(N)=O)C(=O)N[C@H]2C(=O)N[C@H]3C(=O)N[C@H](C(=O)N[C@H](C(=O)O)c4cc(O)cc(O)c4-c4cc3ccc4O)[C@H](O)c3ccc(c(Cl)c3)Oc3cc2cc(c3O[C@@H]2O[C@H](CO)[C@@H](O)[C@H](O)[C@H]2O[C@H]2C[C@](C)(N)[C@H](O)[C@H](C)O2)Oc2ccc(cc2Cl)[C@H]1O  Ki (Hepatic sodium/bile acid cotransporter (SLC10A1, Homo sapiens, UniProt Q14973); taurocholate uptake, inhibitor; NTCP-expressing HEK293; added: 10 µM taurocholate): 488 ± 398 µM
COc1cc(Nc2ncc(F)c(Nc3ccc4c(n3)NC(=O)C(C)(C)O4)n2)cc(OC)c1OC  IC50 (M-phase inducer phosphatase 2 (CDC25B, Homo sapiens, UniProt P30305); enzyme activity, inhibitor): > 10 µM
CC(C)=CCN=C(N)N  Ki (speB (Escherichia coli, UniProt P60651); competitive inhibitor; pH 7.5, added: agmatine): 7.48 ± 2.12 µM
COc1cc2c3cc1Oc1cc(ccc1O)C[C@@H]1c4c(cc(OC)c(O)c4Oc4ccc(cc4)C[C@@H]3N(C)CC2)CC[N+]1(C)C  Ki (Chrnd/Chrna1/Chrne (Mus musculus, UniProt P02716+P04756+P20782); inhibitor; mouse hemidiaphragm; one site per receptor model): ~0.04 µM
O[C@@H](CCCN1CCC(O)(c2ccc(Cl)cc2)CC1)c1ccc(F)cc1  Ki (D(3) dopamine receptor (DRD3, Homo sapiens, UniProt P35462)): 6.28 ± 0.507 µM
Cc1ccc2c(c1)C(=O)C1(O)CCN(c3ccccc3)C1=N2 (centres unmarked)  Ki (MYH11 S1 fragment; ATPase activity, inhibitor): 3.2 µM
C[C@H]1CN(c2n[nH]c3nc(N[C@H]4CC[C@H](NS(=O)(=O)CCC(F)(F)F)CC4)ncc23)CCO1  remaining binding (Delta(3,5)-Delta(2,4)-dienoyl-CoA isomerase, mitochondrial (Homo sapiens, UniProt Q13011); Kinobeads competition, item: ECH1; 20 µM, unit not given; reference: vehicle): 1.12
CC[C@H](C)[C@H](NC(=O)[C@H](Cc1ccccc1)NC(=O)[C@H](CCC(=O)O)NC(=O)[C@H](CCCNC(=N)N)NC(=O)[C@H](C)NC(=O)[C@H](C)NC(=O)[C@H](CCC(N)=O)NC(=O)[C@H](CCC(=O)O)NC(=O)[C@H](CCC(=O)O)NC(=O)[C@H](CC(C)C)NC(=O)[C@H](Cc1ccc(O)cc1)NC(=O)[C@H](CO)NC(=O)[C@H](CO)NC(=O)[C@@H](NC(=O)[C@H](CC(=O)O)NC(=O)[C@H](CO)NC(=O)[C@@H](NC(=O)[C@H](Cc1ccccc1)NC(=O)[C@@H](NC(=O)CNC(=O)[C@H](CCC(=O)O)NC(=O)[C@H](C)NC(=O)CCc1c[nH]cn1)[C@@H](C)O)[C@@H](C)O)C(C)C)C(=O)N[C@@H](C)C(=O)N[C@@H](Cc1c[nH]c2ccccc12)C(=O)N[C@@H](CC(C)C)C(=O)N[C@H](C(=O)N[C@@H](CCCNC(=N)N)C(=O)NCC(=O)N[C@@H](CCCNC(=N)N)C(=O)N[C@@H](CCCCNC(=O)COCCOCCNC(=O)COCCOCCNC(=O)CC[C@H](NC(=O)CCCCCCCCCCCCCCCCC(=O)O)C(=O)O)C(=O)NCC(=O)NCC(=O)N[C@@H](CO)C(=O)N[C@@H](CCCCNc1c(NCCCCCN(O)C(=O)CCC(=O)NCCCCCN(O)C(=O)CCC(=O)NCCCCCN(O)C(C)=O)c(=O)c1=O)C(=O)O)C(C)C [zirconium-89 labelled]  tissue uptake (rat, intestine; iv, 3 nmol/kg, 72 h, ex vivo): 0.14 %ID/g
COc1cc(CC(=O)NCC(COC(=O)C(C)(C)C)Cc2ccc(C(C)(C)C)cc2)cc(Br)c1N (centres unmarked)  Ki (Transient receptor potential cation channel subfamily V member 1 (Trpv1, Rattus norvegicus, UniProt O35433); cell-based): 0.00219 µM
O=C(O)C(F)(F)C(F)(F)C(F)(F)C(F)(F)C(F)(F)C(F)(F)C(F)(F)C(F)(F)C(F)(F)C(F)(F)C(F)(F)F  Ki (Sterol carrier protein 2): 1.04 ± 0.04 µM
CCCN(CCc1ccsc1)C1CCc2c(O)cccc2C1 (centres unmarked)  IC50 (BCHE; inhibitor, fluorometric): 6.95 ± 2.68 µM
O=C(O)C(F)(F)C(F)(F)C(F)(F)C(F)(F)C(F)(F)C(F)(F)C(F)(F)C(F)(F)C(F)(F)C(F)(F)F  Ki (Sterol carrier protein 2; binder, NBD-stearic acid displacement fluorescence; recombinant protein): 3.7 ± 0.14 µM
O=C[C@H](O)COP(=O)(O)O  Ki (dxs (Pseudomonas aeruginosa, UniProt Q9KGU7, R482A)): 3200 µM and ~3200 µM
C[C@]12CC[C@H](O)C[C@H]1CC[C@@H]1[C@@H]2CC[C@]2(C)[C@@H](C3=CC(=O)OC3)CC[C@]12O  Ki (Oxysterol-binding protein 1 (OSBP, Homo sapiens, UniProt P22059)): > 100 µM
O=C(O)CCC(=O)C(=O)O  Ki (Hypoxia-inducible factor 1-alpha inhibitor (HIF1AN, Homo sapiens, UniProt Q9NWT6); substrate; pH 7.00, 37.0 °C, added: CTAD 100 µM): > 1300 µM
CCC1=C[C@@H]2CN3CCc4c([nH]c5ccccc45)[C@@](C(=O)OC)(C2)[C@@H]13  IC50 (BCHE; inhibitor, fluorometric): 0.98 ± 0.32 µM

Excerpt of the above:
O=C(O)CCC(=O)C(=O)O  Ki (Hypoxia-inducible factor 1-alpha inhibitor (HIF1AN, Homo sapiens, UniProt Q9NWT6); substrate; pH 7.00, 37.0 °C, added: CTAD 100 µM): > 1300 µM
CCC1=C[C@@H]2CN3CCc4c([nH]c5ccccc45)[C@@](C(=O)OC)(C2)[C@@H]13  IC50 (BCHE; inhibitor, fluorometric): 0.98 ± 0.32 µM
